Experimental data of several laboratories.

SMILES | method | sample | notes | reading | retention time [min]
CC[C@H](C)[C@H](NC(=O)CN)C(=O)N[C@@H](CCCCN)C(=O)N[C@@H](CCCCN)C(=O)N[C@@H](Cc1ccccc1)C(=O)N[C@@H](CC(C)C)C(=O)N[C@@H](CCCCN)C(=O)N[C@@H](CO)C(=O)N[C@@]1(C)CCCC=CCCC[C@@](C)(C(=O)N[C@@H](CCCCN)C(=O)N[C@@H](C)C(=O)N[C@@H](Cc2ccccc2)C(=O)N[C@@H](CCCCN)C(N)=O)NC(=O)[C@H](Cc2ccccc2)NC(=O)[C@H](CCCCN)NC(=O)[C@H](CCCCN)NC1=O | UPLC | TFA water/acetonitrile gradient |  | longer = more hydrophobic | 2.38
CCCC[C@@H]1NC(=O)[C@H]([C@@H](C)CC)NC(=O)[C@H](CCC(=O)O)NC(=O)[C@@](C)(NC(=O)[C@@H](NC(=O)[C@H](Cc2ccccc2)NC(=O)[C@H](C)NC(=O)[C@H](CCCCN)NC(=O)CNC(=O)[C@H](Cc2ccccc2)NC(=O)[C@H](CCCCN)NC(=O)[C@H](CCCCN)NC(=O)[C@H](C)NC(=O)[C@H](CO)NC(=O)[C@H](Cc2c[nH]cn2)NC(=O)[C@H](CC(C)C)NC(=O)[C@H](Cc2ccccc2)NC(=O)[C@H](CCCCN)NC(=O)CNC(=O)[C@@H](NC(=O)CN)[C@@H](C)CC)C(C)C)CCCC=CCCC[C@@](C)(C(=O)N[C@@H](CO)C(N)=O)NC1=O | HPLC C18 column |  |  |  | 12.7
CC[C@H](C)[C@H](NC(=O)CN)C(=O)N[C@@H](CCCCN)C(=O)N[C@@H](CCCCN)C(=O)N[C@@H](Cc1ccccc1)C(=O)N[C@@H](CC(C)C)C(=O)N[C@@H](CCCCN)C(=O)N[C@@]1(C)CCCC=CCCC[C@@](C)(C(=O)N[C@H](C(=O)N[C@@H](CCCCN)C(=O)N[C@@H](C)C(=O)N[C@@H](Cc2ccccc2)C(=O)N[C@@H](CCCCN)C(N)=O)C(C)C)NC(=O)[C@H](CCCCN)NC(=O)[C@H](CCCCN)NC(=O)[C@H](C)NC1=O | UPLC | TFA water/acetonitrile gradient |  | longer = more hydrophobic | 2.34
N=C(N)NCCC[C@H](NC(=O)[C@@H]1CCCN1C(=O)[C@H](CCC(N)=O)NC(=O)[C@H](CCCCN)NC(=O)[C@H](CC(=O)O)NC(=O)[C@@H]1CCCN1C(=O)[C@H](Cc1ccccc1)NC(=O)CNC(=O)[C@H](CCC(=O)O)NC(=O)[C@H](Cc1ccccc1)NC(=O)[C@@H](N)Cc1ccccc1)C(=O)N[C@@H](CCCCN)C(=O)N[C@@H](CCCCN)C(N)=O | RP-HPLC |  | C18 column |  | 13
CC(C)C[C@H](N)C(=O)N[C@@H](Cc1ccc(O)cc1)C(=O)N[C@@H](CCC(N)=O)C(=O)N[C@@H](CCC(N)=O)C(=O)N[C@@H](CC(N)=O)C(=O)N[C@@H](Cc1ccc(O)cc1)C(=O)O | RP-HPLC C18 |  |  |  | 12.8
CCCC[C@H](NC(=O)[C@@H](NC(=O)[C@H](CCC(=O)O)NC(=O)CNC(=O)[C@@H](NC(=O)[C@H](Cc1ccccc1)NC(=O)[C@H](C)NC(=O)[C@H](CCCCN)NC(=O)CNC(=O)[C@H](Cc1ccccc1)NC(=O)[C@H](CCCCN)NC(=O)[C@H](CCCCN)NC(=O)[C@H](C)NC(=O)[C@H](CO)NC(=O)[C@H](Cc1c[nH]cn1)NC(=O)[C@H](CC(C)C)NC(=O)[C@]1(C)CCCC=CCCC[C@](C)(N)C(=O)N[C@@H]([C@@H](C)CC)C(=O)NCC(=O)N[C@@H](CCCCN)C(=O)N1)C(C)C)[C@@H](C)CC)C(=O)N[C@@H](CC(N)=O)C(=O)N[C@@H](CO)C(N)=O | HPLC C18 column |  |  |  | 12.1
NCC(=O)N[C@@H](CC(N)=O)C(=O)N[C@@H](CC(N)=O)C(=O)N[C@@H](CCC(N)=O)C(=O)N[C@@H](CCC(N)=O)C(=O)N[C@@H](CC(N)=O)C(=O)N[C@@H](Cc1ccc(O)cc1)C(=O)O | RP-HPLC C18 |  |  |  | 9.61
CC[C@H](C)[C@H](NC(=O)CN)C(=O)N[C@@H](CCCCN)C(=O)N[C@@H](CCCCN)C(=O)N[C@]1(C)CCCCCCC=CCCC[C@@](C)(C(=O)N[C@H](C(=O)N[C@@H](CCCCN)C(=O)N[C@@H](C)C(=O)N[C@@H](Cc2ccccc2)C(=O)N[C@@H](CCCCN)C(N)=O)C(C)C)NC(=O)[C@H](CCCCN)NC(=O)[C@H](CCCCN)NC(=O)[C@H](C)NC(=O)[C@H](CO)NC(=O)[C@H](CCCCN)NC(=O)[C@H](CC(C)C)NC1=O | UPLC | TFA water/acetonitrile gradient |  | longer = more hydrophobic | 2.41
CCCC[C@H](NC(=O)[C@H](Cc1ccc(O)cc1)NC(=O)[C@@H](N)CC(C)C)C(=O)N[C@@H](CCC(N)=O)C(=O)N[C@@H](CC(N)=O)C(=O)N[C@@H](Cc1ccc(O)cc1)C(=O)O | RP-HPLC C18 |  |  |  | 15.4
CCCC[C@H](NC(=O)[C@@H](NC(=O)[C@H](CCC(=O)O)NC(=O)CNC(=O)[C@@H](NC(=O)[C@]1(C)CCCC=CCCC[C@](C)(NC(=O)[C@H](CCCCN)NC(=O)[C@H](CCCCN)NC(=O)[C@H](C)NC(=O)[C@H](CO)NC(=O)[C@H](Cc2c[nH]cn2)NC(=O)[C@H](CC(C)C)NC(=O)[C@H](Cc2ccccc2)NC(=O)[C@H](CCCCN)NC(=O)CNC(=O)[C@@H](NC(=O)CN)[C@@H](C)CC)C(=O)NCC(=O)N[C@@H](CCCCN)C(=O)N[C@@H](C)C(=O)N1)C(C)C)[C@@H](C)CC)C(=O)N[C@@H](CC(N)=O)C(=O)N[C@@H](CO)C(N)=O | HPLC C18 column |  |  |  | 12.9

A few entries again:
SMILES | method | sample | notes | reading | retention time [min]
CC[C@H](C)[C@H](NC(=O)CN)C(=O)N[C@@H](CCCCN)C(=O)N[C@@H](CCCCN)C(=O)N[C@]1(C)CCCCCCC=CCCC[C@@](C)(C(=O)N[C@H](C(=O)N[C@@H](CCCCN)C(=O)N[C@@H](C)C(=O)N[C@@H](Cc2ccccc2)C(=O)N[C@@H](CCCCN)C(N)=O)C(C)C)NC(=O)[C@H](CCCCN)NC(=O)[C@H](CCCCN)NC(=O)[C@H](C)NC(=O)[C@H](CO)NC(=O)[C@H](CCCCN)NC(=O)[C@H](CC(C)C)NC1=O | UPLC | TFA water/acetonitrile gradient |  | longer = more hydrophobic | 2.41
